Assay results of several laboratories.
Each line is one published result; not all experiments were run side by side. Numbers after ± are the reported error. Values after ≈ are worked out from the molar mass of the structure shown.
Organism: Mycobacterium tuberculosis

| Structure (SMILES) | test | test system | setting | how to read | quantity | value |
| --- | --- | --- | --- | --- | --- | --- |
| COc1ccc(-c2cc(C(F)(F)F)c3c(N)c(C(=O)N4CCC4)sc3n2)cc1 |  | H37Rv wild type |  | baseline: HepG2 IC50 over M. tuberculosis IC90 | selectivity index | < 1 |
| CC(c1cccnc1)n1c(=S)[nH]c2ccc(Cl)cc2c1=O (centres unmarked) |  | THP-1 macrophages, H37Rv-GFP | 96 h |  | IC80 | > 30 µM |
| CNC(=O)c1cc(C)ccc1OCCc1ccc(C2CC2)cc1 |  | H37Rv-LP |  | baseline: HepG2 CC50 over Mtb IC90 | selectivity index | 278 |
| COc1ccc(-c2cc(C(F)(F)F)c3c(N)c(C(=O)Nc4cc(C)ccc4C)sc3n2)cc1 |  | H37Rv wild type | 120 h |  | IC90 | inactive |
| COC(=O)C(=O)[C@H](C[C@@H]1CCNC1=O)NC(=O)[C@H](CCCCN)NC(=O)[C@H](Cc1ccccc1)NC(=O)OCc1ccccc1 | bacterial growth | THP-1 macrophages, Mtb-lux | 24 h |  | IC50 | 19.3 ± 7.2 µM |
| CCNC(=O)c1cc(C)ccc1OCCc1cc(F)cc(F)c1 |  | H37Rv-LP |  | baseline: HepG2 CC50 over Mtb IC90 | selectivity index | 33 |
| Cc1ccc(-c2cc(C(F)(F)F)c3c(N)c(C(=O)Nc4cccc(C)c4C)sc3n2)cc1 | growth inhibition | H37Rv LepB under-expressing |  |  | IC50 | > 100 µM |
| CN1CCN(c2ccc(Nc3nccc(-c4ccnc(Cl)c4)n3)cc2C(F)(F)F)CC1 |  | H37Rv auxotroph |  |  | MIC | 50 µM (≈ 22.4 µg/mL) |
| Cc1ccc(Cn2c(=S)[nH]c3ccc(Cl)cc3c2=O)cn1 |  | PptT conditional knockdown |  |  | MIC90 | > 25 µM |
| NC(=O)c1cc(C2CC2)ccc1OCCc1cccc(F)c1 |  | H37Rv-LP |  | baseline: HepG2 CC50 over Mtb IC90 | selectivity index | 44 |
| CC(C)C(=O)OCc1cc2[nH]c(=S)n(Cc3cncc(C(N)=S)c3)c(=O)c2cc1Cl |  | PptT conditional knockdown |  |  | MIC90 | 0.353 µM (≈ 0.163 µg/mL) |
| CC(O)c1ccc(OCCc2cccc(F)c2)c(C(N)=O)c1 (centres unmarked) |  | H37Rv-LP |  | baseline: HepG2 CC50 over Mtb IC90 | selectivity index | > 16 |
| Nc1cccc(F)c1C(=O)NNc1cccc(Cl)c1 |  | H37Rv | 336 h |  | MIC99 | 1.56 to 2.84 µM (≈ 0.436 to 0.794 µg/mL) |
| O=c1c2cc(Cl)ccc2[nH]c(=S)n1Cc1ccc(-n2cccn2)nc1 |  | PptT conditional knockdown |  |  | MIC90 | 1.08 µM (≈ 0.399 µg/mL) |
| CCCCCCC#Cc1cncc(-c2nnc(SCc3ccc(Cl)cc3)n2C2CC2)c1 | bacterial growth | Erdman wild type |  |  | IC50 | 3.3 µM |
| NC(=S)c1ccc(Cn2c(=S)[nH]c3ccc(Cl)cc3c2=O)cn1 |  | PptT conditional knockdown |  |  | MIC90 | 0.83 µM (≈ 0.301 µg/mL) |
| COc1ccc(-c2cc(C(F)(F)F)c3c(N)c(C(=O)N4CC(F)(F)C4)sc3n2)cc1 |  | H37Rv wild type | 120 h |  | IC90 | inactive |
| CNC(=O)c1cc(C)ccc1OCCc1ccc(Br)cc1 | growth | H37Rv-LP | 120 h |  | IC90 | 0.33 µM |
| COc1ccc(-c2cc(C(F)(F)F)c3c(N)c(C(=O)Nc4ccccc4)sc3n2)cc1 | growth inhibition | H37Rv LepB under-expressing |  |  | IC50 | > 100 µM |
| COC(=O)c1cc2[nH]c(=S)n(Cc3cccnc3)c(=O)c2cc1Cl |  | PptT conditional knockdown |  |  | MIC90 | 21.2 µM (≈ 7.67 µg/mL) |
| NC(=O)c1cc(-c2ccsc2)ccc1OCCc1cccc(F)c1 |  | H37Rv-LP |  | baseline: HepG2 CC50 over Mtb IC90 | selectivity index | 86 |
| COc1ccc(-c2cc(C(F)(F)F)c3c(N)c(C(=O)N4C5CCCC4COC5)sc3n2)cc1 |  | H37Rv wild type | 120 h |  | IC90 | inactive |
| O=C1c2cc(Cl)ccc2NS(=O)(=O)N1Cc1cccnc1 |  | PptT conditional knockdown |  |  | MIC90 | > 100 µM |

Repeated from above:
| Structure (SMILES) | test | test system | setting | how to read | quantity | value |
| --- | --- | --- | --- | --- | --- | --- |
| CN1CCN(c2ccc(Nc3nccc(-c4ccnc(Cl)c4)n3)cc2C(F)(F)F)CC1 |  | H37Rv auxotroph |  |  | MIC | 50 µM (≈ 22.4 µg/mL) |
| Cc1ccc(Cn2c(=S)[nH]c3ccc(Cl)cc3c2=O)cn1 |  | PptT conditional knockdown |  |  | MIC90 | > 25 µM |
| NC(=O)c1cc(C2CC2)ccc1OCCc1cccc(F)c1 |  | H37Rv-LP |  | baseline: HepG2 CC50 over Mtb IC90 | selectivity index | 44 |
